Published values from different studies.
Compare with care: the assays were run in different laboratories. “And” joins repeats or separate records; there may be more than shown. Numbers after ± are the reported error.

O=C(O)CCC(=O)O.[2H]C([2H])([2H])Oc1cc(C)c2[nH]ccc2c1CN1CC[C@@H](C2CC2)C[C@H]1c1ccc(C(=O)O)cc1 — subjects with drug-related TEAE (healthy Chinese subjects; 100 mg twice daily, multiple ascending dose): 37.5%
CCc1cc(C(=O)NC)c2nccc(N3CCc4c(cc(Cn5ccnc5)cc4-c4cn(C)nc4C(F)(F)F)C3=O)c2c1 — AUC extrapolated fraction (Sprague Dawley rat, male, plasma; oral, 100 mg/kg single dose, day 1, toxicokinetic satellite group): 0.9%
O=C(O)CCc1ccc(O)c(OS(=O)(=O)O)c1 — plasma concentration (human plasma; mean): 1700 nM
CCOc1c([C@H](C)n2nc(C)c3c(N)ncnc32)cc(Cl)c(F)c1[C@@H]1CNC(=O)C1 — observations with PR ≤200 ms (ECG; previously treated B-cell malignancy patients; oral, 30 mg once daily, baseline below thresholds): 86.3%
C=CC(=O)Nc1cc(Nc2nccc(-c3cn(C4CC4)c4ccccc34)n2)c(OC)cc1N(C)CCN(C)C — PDW (BALB/c nude mouse, LU0387 xenograft, blood; oral, 40 mg/kg): 7.74 ± 0.308 fL
FC(F)(F)c1ccc(CNc2ccc(Cc3c[nH]c4ncc(Cl)cc34)cn2)cn1 — adverse event incidence (measured: decreased appetite; patients with advanced solid tumours; oral, dose not given, grade 3 and 4, possibly related to drug): 0%
CCn1cc(C(=O)O)c(=O)c2ccc(C)nc21 — amount permeated (starch gel membrane permeability; Gram-negative envelope surrogate; 200 µM, 20 min, pH 7.4): 1.96 nmol
COc1cc(C(=O)NC2CCN(C)CC2)c(F)cc1Nc1ncc(C(F)(F)F)c(Oc2cccc3c2C(=O)N(C)C3)n1 — AUC(0-24) (human patients; oral, 100 mg, cycle 1 day 1, geometric mean): 13.1 µM·h
CNC(=O)c1ccc(-c2cnc3ncc(Cc4ccc5ncccc5c4)n3n2)cc1F — Amylase increased dose reduction/interruption (Japanese patients; oral, 400 mg, grade 3/4): 3%
CC(C)(C(=O)N1CCOc2c(C#N)cncc2C1)C(F)F — subjects with adverse event (measured: Palpitations; human; oral, 20 mg twice daily, 14 days, multiple ascending dose): 0%
CC(=O)O[C@H]1C[C@@]2(C)[C@@H](C[C@@H](O)[C@H]3[C@@]4(C)CC[C@@H](O)[C@@H](C)[C@@H]4CC[C@@]32C)/C1=C(\CCC=C(C)C)C(=O)O — amount permeated (starch gel membrane permeability; Gram-negative envelope surrogate; 200 µM, 60 min, pH 7.4): 0.49 nmol
CCn1c(=O)c(-c2cc(NC(=O)Nc3ccccc3)c(F)cc2Br)cc2cnc(NC)cc21 — participants with grade ≥ 3 TEAE (measured: lipase increased; healthy human, matched to mild hepatic impairment; oral, 50 mg single dose): 12.5%
O=C(O)CNC(=O)c1ccccc1 — plasma concentration (human plasma; median, both sexes): 345000 nM
C[C@H]1CN(C(=O)CC#N)[C@]12CCN(c1ncnc3[nH]ccc13)C2 — AUC(0-last) (healthy Japanese males; oral, 100 mg single dose, mean): 3240 ng·h/mL
N#C[C@@]12C[C@@H]1[C@@H](n1cnc3c(N[C@@H](C4CCC4)C4CC4)nc(I)nc31)[C@H](O)[C@@H]2O — clearance (Wistar rats male, plasma; oral, 10.0 mg/kg): 477 mL/min/kg
CCc1nc(C(N)=O)c(Nc2ccc(N3CCC(N4CCN(C)CC4)CC3)c(OC)c2)nc1NC1CCOCC1 — accumulation ratio (AUC) (Japanese patients, plasma; oral, 80 mg, cycle 1 day 28, multiple doses, median; reference: single dose): 4.68
O=C(O)c1c(O)cccc1O — plasma concentration (human plasma; median, both sexes): 5810 nM
CCc1c(-c2ccccc2)c(-c2ccccc2)nn1-c1ccccc1-c1cccc(OCC(=O)O)c1 — AUC extrapolated observed (Sprague-Dawley rat; intravenous, dose not given): 0.628% and 1.96% and 0.998%
OC[C@H]1O[C@@H](c2ccc(Cl)c(Cc3ccc(O[C@H]4CCOC4)cc3)c2)[C@H](O)[C@@H](O)[C@@H]1O — change in Potassium (Japanese type 1 diabetes patients, blood; 2.5 mg, day 28; reference: baseline): 0 mEq/L
COc1ccc2[nH]c([S+]([O-])Cc3ncc(C)c(OC)c3C)nc2c1 (stereo not drawn) — R/S ratio change (human male; oral, dose not given, 2 h; reference: rifampicin-induced over baseline): 1.09
CCN1/C(=C/C(C)=O)Sc2ccc(F)cc21 — heart rate (cynomolgus monkey; oral, 30 mg/kg, 2 h post-dose): 116 ± 25 beats/min
O=c1oc2cc(O)ccc2c2cc(O)ccc12 — plasma concentration (human plasma; median): 1000 nM
O=C1c2ccncc2C(=O)c2c1[nH]c1ccccc21 — oral bioavailability (Sprague-Dawley rat, male, plasma; oral, 1 mg/kg; reference: intravenous AUC(0-t)): 26%
CNc1ccc(-c2nc3ccc(O)cc3s2)cc1 [carbon-11 labelled] — SUV (microPET/CT imaging; B6SJL mouse, normal, heart; intravenous, 10 min): 0.972 ± 0.306
Cn1cc([C@H]2C[C@H]3CSC(N)=N[C@@]3(c3ccc(F)cc3F)CO2)cn1 — CSF concentration (mouse; subcutaneous, 10 mg/kg, 18 h): not detected
NC1(C(=O)N[C@@H](CCO)c2ccc(Cl)cc2)CCN(c2nc[nH]c3nccc2-3)CC1 — incidence of Anaemia (metastatic CRPC patients; 400 mg b.i.d., grade 3 to 4, treatment-related, with: enzalutamide 160 mg daily): 0%
O=C(Nc1nc2cccc(-c3ccc(CN4CCS(=O)(=O)CC4)cc3)n2n1)C1CC1 — treatment-emergent adverse events (measured: injection site haematoma; human rheumatoid arthritis patients; oral, 30 mg once daily, 4 weeks, regardless of relatedness): 0%
CC[C@H](C)[C@H](NC(=O)[C@H](Cc1ccccc1)NC(=O)[C@H](CCC(=O)O)NC(=O)[C@H](CCCCNC(=O)COCCOCCNC(=O)COCCOCCNC(=O)CC[C@H](NC(=O)CCCCCCCCCCCCCCCCC(=O)O)C(=O)O)NC(=O)[C@H](C)NC(=O)[C@H](C)NC(=O)[C@H](CCC(N)=O)NC(=O)CNC(=O)[C@H](CCC(=O)O)NC(=O)[C@H](CC(C)C)NC(=O)[C@H](Cc1ccc(O)cc1)NC(=O)[C@H](CO)NC(=O)[C@H](CO)NC(=O)[C@@H](NC(=O)[C@H](CC(=O)O)NC(=O)[C@H](CO)NC(=O)[C@@H](NC(=O)[C@H](Cc1ccccc1)NC(=O)[C@@H](NC(=O)CNC(=O)[C@H](CCC(=O)O)NC(=O)C(C)(C)NC(=O)[C@@H](N)Cc1cnc[nH]1)[C@@H](C)O)[C@@H](C)O)C(C)C)C(=O)N[C@@H](C)C(=O)N[C@@H](Cc1c[nH]c2ccccc12)C(=O)N[C@@H](CC(C)C)C(=O)N[C@H](C(=O)N[C@@H](CCCNC(=N)N)C(=O)NCC(=O)N[C@@H](CCCNC(=N)N)C(=O)NCC(=O)O)C(C)C — systolic blood pressure difference (type 2 diabetes patients; dose not given, hypoglycaemic clamp, nadir to recovery; reference: placebo): 1.4 mm Hg
CC[C@H](C)CCCCC(=O)N[C@@H](CCN)C(=O)N[C@H](C(=O)N[C@@H](CCN)C(=O)N[C@H]1CCNC(=O)[C@H]([C@@H](C)O)NC(=O)[C@H](CCN)NC(=O)[C@H](CCN)NC(=O)[C@H](CC(C)C)NC(=O)[C@@H](Cc2ccccc2)NC(=O)[C@H](CCN)NC1=O)[C@@H](C)O — AUC(0-last) (mild renal insufficiency patients, plasma; IV, 0.75 mg/kg, geometric least squares mean): 19700 ng·h/mL
Cn1nc2c(=O)n(C3CC3)ncc2c1[C@](N)(c1ccc(C(F)(F)F)c(Cl)c1)C1CC1 — CL (rat Sprague-Dawley male, plasma; intravenous, 1 mg/kg): 1.54 ± 0.288 mL/min/kg
CC(=O)NCc1cc2c(cc1F)C(=O)N(C1CCC(=O)NC1=O)C2 (stereo not drawn) — plasma concentration (cynomolgus monkey, male; oral, 0.3 mg/kg parent drug, 6 h): 0.15 ng/mL
C[C@@H]1CCO[C@H]2Cn3cc(C(=O)NCc4ccc(F)cc4F)c(=O)c(O)c3C(=O)N12 — AUC(0-24) (human paediatric patients, weight sample B to under sample C kg, plasma; oral, 25 mg dispersible tablet, steady state, geometric mean, population PK post-hoc, N 22): 61400 ng·h/mL
CCCCC[C@H](O)CC[C@@H]1[C@H]2Cc3cccc(OCC(=O)O)c3C[C@H]2C[C@H]1O — geometric mean AUC(0-inf) (LC-MS/MS; male Japanese PAH patients, plasma; inhaled, 54 µg): 0.91 ng·h/mL
Cc1nc2ccc(OCc3ccc(C(F)(F)F)cc3)cc2[nH]1 — tissue/plasma ratio (male Balb/c mice, heart; oral, 10 mg/kg, 72 h; reference: tissue over plasma): 5.3 ± 2.6
O=C(/C=C/c1ccc(O)c(O)c1)O[C@H]1[C@H](O)C[C@](O)(C(=O)O)C[C@H]1O — plasma concentration (human plasma; mean): 177 nM
N#Cc1ccc2c(c1)[C@H]1CCCN(C(=O)c3ccc4[nH]cnc4c3)[C@H]1C2 — total testosterone level (human males; 20 mg, end of trial): 11 nmol/L
O=C1OC[C@H](Cc2cccc(O)c2)[C@H]1Cc1cccc(O)c1 — plasma concentration (human plasma; mean, both sexes): 608 nM
O=c1c2ccccc2oc2ccccc12 — solubility (tricaprin-tricaprylin mixture; 75 °C, tricaprin fraction 0.36): 0.108 mole fraction
COc1cc(O)c2c(c1)C(=O)c1cc(C)cc(O)c1C2=O — cell viability (HepaRG co-cultured with HK-2; MTT; 266.67 µM, 24 h; reference: untreated control): 95.4 ± 13.4%
CCn1cc(C(=O)O)c(=O)c2cc(F)c(N3CCNCC3)cc21 — amount permeated (starch gel membrane permeability; Gram-negative envelope surrogate; 200 µM, 30 min, pH 7.4): 2.07 nmol
COc1c(O)c(C)cc2c1C(=O)c1c(O)cccc1C2=O — cell viability (HepaRG co-cultured with HK-2; MTT; 133.33 µM, 48 h; reference: untreated control): 41.9 ± 3.72%
Cc1nc(-c2cnc(NC(C)C)n(C)c2=O)ccc1Oc1ccnc(-c2cnn(C)c2)c1 — apparent clearance (Beagle dog, male, plasma; oral, 3 mg/kg, crossover study, mean): 7.5 mL/min/kg
CSc1ccccc1C(=O)NCCn1cc(C(=O)NCc2cccc(C)n2)c(=O)c2cc3c(cc21)OC(F)(F)O3 — Tmax (Sprague-Dawley rat, male, plasma; intramuscular, 30 mg/kg of parent drug): 16.2 ± 7.85 h
Cc1onc(-c2ccccc2)c1-c1ccc(S(N)(=O)=O)cc1 — necrotic cells (COS-7; 50 µM, 24 h, 0.1% DMSO, unit not given; reference: vehicle control): 0.51 ± 0.08
O=C(O)[C@H]1O[C@@H](Oc2ccc3c(c2)OC[C@H](c2ccc(O)cc2)C3)[C@H](O)[C@@H](O)[C@@H]1O — plasma concentration (human plasma; mean): 794 nM
Cc1cc(-c2nccc3c2ccn3CC(=O)Nc2ccc(-c3cnccn3)cn2)ccn1 — AUCtau (human, plasma; oral, 20 mg once daily, day 1, geometric mean): 1.35 µM·h
COc1cc2c3c(n(CCCN4CCOCC4)c(=O)c2cc1OC)-c1cc2c(cc1C3=O)OCO2 — neutrophil count decrease (rat; intravenous, 48 mg/m^2, 5 days once daily; reference: control): ≤ 80%
Cc1cc(C)c(CNC(=O)c2cc(Cl)c3c(c2C)O[C@@](C)([C@H]2CC[C@H](N(C)C)CC2)O3)c(=O)[nH]1 — patients with grade ≥3 TEAE (measured: Hyperglycemia; human patients; oral, 200 mg once daily, 1 day onset day 14): 0%

Excerpt of the above:
CC(=O)O[C@H]1C[C@@]2(C)[C@@H](C[C@@H](O)[C@H]3[C@@]4(C)CC[C@@H](O)[C@@H](C)[C@@H]4CC[C@@]32C)/C1=C(\CCC=C(C)C)C(=O)O — amount permeated (starch gel membrane permeability; Gram-negative envelope surrogate; 200 µM, 60 min, pH 7.4): 0.49 nmol
CCn1c(=O)c(-c2cc(NC(=O)Nc3ccccc3)c(F)cc2Br)cc2cnc(NC)cc21 — participants with grade ≥ 3 TEAE (measured: lipase increased; healthy human, matched to mild hepatic impairment; oral, 50 mg single dose): 12.5%
O=C(O)CNC(=O)c1ccccc1 — plasma concentration (human plasma; median, both sexes): 345000 nM
C[C@H]1CN(C(=O)CC#N)[C@]12CCN(c1ncnc3[nH]ccc13)C2 — AUC(0-last) (healthy Japanese males; oral, 100 mg single dose, mean): 3240 ng·h/mL
